Experimental data collected from several papers.
Protocols differ between the studies behind these lines. Numbers after ± are the reported error.

Structure (SMILES)	assay	test system	conditions	scale	endpoint	result
N=C(N)NCCC[C@@H]1NC(=O)[C@H](CCCCNC(=O)CCOCCOCCOCCOCCNC(=O)CC[C@H](NC(=O)CCOCCOCCOCCOCCNC(=O)CC[C@H](NC(=O)CN2CCN(CC(=O)O)CCN(CC(=O)O)CCN(CC(=O)O)CC2)C(=O)NCCOCCOCCOCCOCCC(=O)N[C@@H](CCC(=O)NCCOCCOCCOCCOCCC(=O)NCCCC[C@@H]2NC(=O)[C@@H](Cc3ccccc3)NC(=O)[C@H](CC(=O)O)NC(=O)CNC(=O)[C@H](CCCNC(=N)N)NC2=O)C(=O)NCCOCCOCCOCCOCCC(=O)NCCCC[C@@H]2NC(=O)[C@@H](Cc3ccccc3)NC(=O)[C@H](CC(=O)O)NC(=O)CNC(=O)[C@H](CCCNC(=N)N)NC2=O)C(=O)NCCOCCOCCOCCOCCC(=O)NCCCC[C@@H]2NC(=O)[C@@H](Cc3ccccc3)NC(=O)[C@H](CC(=O)O)NC(=O)CNC(=O)[C@H](CCCNC(=N)N)NC2=O)NC(=O)[C@@H](Cc2ccccc2)NC(=O)[C@H](CC(=O)O)NC(=O)CNC1=O [indium-111 labelled]	–	octanol/water	–	–	log P	-3.68 ± 0.03
C[C@@H]1NC(=O)[C@H](CCC(=O)O)NC(=O)CNC(=O)[C@H](CC(=O)O)NC(=O)CNC(=O)[C@H](CCCCNC(=O)CCCCCNC(=O)[C@H](CS)NC(=O)CCCCCNC(=O)CN2CCN(CC(=O)O)CCN(CC(=O)O)CCN(CC(=O)O)CC2)NC(=O)[C@@H](Cc2ccc(O)cc2)NC1=O [gallium-68 labelled]	–	mouse serum	concentration not given, 1.5 h, 37 °C, 90% serum	–	soluble radioactivity	87%
CC[C@H]1CN2CCc3cc(OC)c(OC)cc3[C@@H]2C[C@@H]1C[C@@H]1c2cc(OC)c(OC)cc2CCN1C(=O)OCc1ccc(NC(=O)[C@@H]2CCCN2C(=O)[C@H](C)NC(=O)[C@H](CCC(N)=O)NC(=O)[C@H](CC(C)C)NC(=O)[C@H](CCCCN)NC(=O)[C@H](CO)NC(=O)[C@H](CO)NC(=O)[C@H](Cc2cnc[nH]2)NC(C)=O)cc1	convulsions and death	mouse	intravenous, single dose	–	toxic dose	50 mg/kg
N=C(N)NCCC[C@@H]1NC(=O)[C@H](CCCCNC(=O)CNC(=O)CNC(=O)CNC(=O)CC[C@H](NC(=O)c2ccc(NN=Cc3ccccc3S(=O)(=O)O)nc2)C(=O)NCC(=O)NCC(=O)NCC(=O)NCCCC[C@@H]2NC(=O)[C@@H](Cc3ccccc3)NC(=O)[C@H](CC(=O)O)NC(=O)CNC(=O)[C@H](CCCNC(=N)N)NC2=O)NC(=O)[C@@H](Cc2ccccc2)NC(=O)[C@H](CC(=O)O)NC(=O)CNC1=O [technetium-99m labelled]	shake-flask	n-octanol/phosphate buffer	pH 7.4	–	log P	-4.3 ± 0.03
Cc1ncsc1-c1ccc(CNC(=O)[C@@H]2C[C@@H](OC(=O)OCCSSCCn3cc(CCCC(=O)N[C@@H](Cc4ccc(O)cc4)C(=O)N[C@@H](CCCNC(=N)N)C(=O)N[C@@H](CCCNC(=N)N)C(=O)N[C@@H](CCCNC(=N)N)C(=O)N[C@@H](CCCNC(=N)N)C(=O)N[C@@H](CCCNC(=N)N)C(=O)N[C@@H](CCCNC(=N)N)C(=O)N[C@@H](CCCNC(=N)N)C(=O)N[C@@H](CCCNC(=N)N)C(=O)N[C@@H](CCCNC(=N)N)C(N)=O)nn3)CN2C(=O)[C@@H](NC(=O)COCCOCCOCCNC(=O)C[C@@H]2N=C(c3ccc(Cl)cc3)c3c(sc(C)c3C)-n3c(C)nnc32)C(C)(C)C)cc1	UHPLC	PBS	100 nM, 2 h, 37 °C, together with: 5 mM glutathione	reference: total peak area	remaining intact compound	0%
N=C(N)NCCC[C@@H]1NC(=O)[C@H](CCCCNC(=O)CCOCCOCCOCCOCCNC(=O)CC[C@H](NC(=O)CCOCCOCCOCCOCCNC(=O)[C@H](CCCCNC(=O)c2ccc(NN)nc2)NC(=O)c2ccc(NN)nc2)C(=O)NCCOCCOCCOCCOCCC(=O)NCCCC[C@@H]2NC(=O)[C@@H](Cc3ccccc3)NC(=O)[C@H](CC(=O)O)NC(=O)CNC(=O)[C@H](CCCNC(=N)N)NC2=O)NC(=O)[C@@H](Cc2ccccc2)NC(=O)[C@H](CC(=O)O)NC(=O)CNC1=O [technetium-99m labelled]	radio-HPLC	athymic nude mice	dose not given	reference: collected radioactivity	radioactivity in urine	> 90%
N=C(N)NCCC[C@@H]1NC(=O)[C@H](CCCCNC(=O)CC[C@H](NC(=O)CCOCCOCCOCCOCCNC(=O)CN2CCN(CC(=O)O)CCN(CC(=O)O)CCN(CC(=O)O)CC2)C(=O)NCCCC[C@@H]2NC(=O)[C@@H](Cc3ccccc3)NC(=O)[C@H](CC(=O)O)NC(=O)CNC(=O)[C@H](CCCNC(=N)N)NC2=O)NC(=O)[C@@H](Cc2ccccc2)NC(=O)[C@H](CC(=O)O)NC(=O)CNC1=O [indium-111 labelled]	–	athymic nude mice, female, U-87 MG glioma xenograft, tumour and blood	intravenous, 24 h	reference: tumour over blood	tumour to tissue ratio	41.3 ± 8.03
CSCC[C@H](NC(=O)[C@H](CC(C)C)NC(=O)[C@H](Cc1c[nH]cn1)NC(=O)CNC(=O)[C@@H](NC(=O)[C@H](C)NC(=O)[C@H](Cc1c[nH]c2ccccc12)NC(=O)[C@H](CCC(N)=O)NC(=O)CCCCCNC(=O)CNC(=O)CNC(=O)CNC(=O)CSC(C)=O)C(C)C)C(N)=O [technetium-99m labelled]	–	healthy Swiss mouse, large intestine, contents removed	intravenous, 18.5 MBq, 90 min	–	tissue uptake	2 ± 1.21 %ID/g
CCCC[C@H](NC(=O)CCCCCCCNC(=O)c1ccc(NN)nc1)C(=O)N[C@H]1CC(=O)NCCCC[C@@H](C(N)=O)NC(=O)[C@H](Cc2c[nH]c3ccccc23)NC(=O)[C@H](CCCNC(=N)N)NC(=O)[C@@H](Cc2ccccc2)NC(=O)[C@H](Cc2c[nH]cn2)NC1=O [technetium-99m labelled]	–	C57 mouse, B16/F1 melanoma, lung	intravenous, 0.5 h	–	uptake	4.06 ± 1.6 %ID/g
N=C(N)NCCC[C@@H]1NC(=O)[C@H](CCCCNC(=O)CNC(=O)CNC(=O)CNC(=O)CC[C@H](NC(=O)CCOCCOCCOCCOCCNC(=O)CC[C@H](NC(=O)CN2CCN(CC(=O)O)CCN(CC(=O)O)CCN(CC(=O)O)CC2)C(=O)NCCOCCOCCOCCOCCC(=O)N[C@@H](CCC(=O)NCC(=O)NCC(=O)NCC(=O)NCCCC[C@@H]2NC(=O)[C@@H](Cc3ccccc3)NC(=O)[C@H](CC(=O)O)NC(=O)CNC(=O)[C@H](CCCNC(=N)N)NC2=O)C(=O)NCC(=O)NCC(=O)NCC(=O)NCCCC[C@@H]2NC(=O)[C@@H](Cc3ccccc3)NC(=O)[C@H](CC(=O)O)NC(=O)CNC(=O)[C@H](CCCNC(=N)N)NC2=O)C(=O)NCC(=O)NCC(=O)NCC(=O)NCCCC[C@@H]2NC(=O)[C@@H](Cc3ccccc3)NC(=O)[C@H](CC(=O)O)NC(=O)CNC(=O)[C@H](CCCNC(=N)N)NC2=O)NC(=O)[C@@H](Cc2ccccc2)NC(=O)[C@H](CC(=O)O)NC(=O)CNC1=O [indium-111 labelled]	–	athymic nude mice, female, U-87 MG glioma xenograft, tumour and kidney	intravenous, 0.5 h	reference: tumour over kidney	tumour to tissue ratio	1.07 ± 0.27
CCCC[C@H](NC(=O)CNC(=O)CNC(=O)CNC(=O)c1ccc(NN)nc1)C(=O)N[C@H]1CC(=O)NCCCC[C@@H](C(N)=O)NC(=O)[C@H](Cc2c[nH]c3ccccc23)NC(=O)[C@H](CCCNC(=N)N)NC(=O)[C@@H](Cc2ccccc2)NC(=O)[C@H](Cc2c[nH]cn2)NC1=O [technetium-99m labelled]	–	C57 mouse, B16/F1 melanoma	2 h	reference: tumour over muscle	uptake ratio	351
CC(C)C[C@@H]1NC(=O)[C@H](C(C)C)NC(=O)[C@H](CO)NC(=O)CNC(=O)CNC(=O)[C@H](CCCNC(=N)N)NC(=O)[C@@H]2CCCN2C(=O)[C@@H](NC(=O)CC[C@H](NC(=O)c2ccc(N(C)Cc3cnc4nc(N)nc(N)c4n3)cc2)C(=O)O)C(C)(C)SSC[C@@H](C(=O)O)NC(=O)CNC(=O)[C@H]([C@@H](C)O)NC(=O)[C@H](C(C)C)NC1=O	chemical stability	rat heart homogenate	1 µM, 37 °C	–	half-life	38 min
CCCC[C@H](NC(=O)CNC(=O)CNC(=O)c1ccc(NN)nc1)C(=O)N[C@H]1CC(=O)NCCCC[C@@H](C(N)=O)NC(=O)[C@H](Cc2c[nH]c3ccccc23)NC(=O)[C@H](CCCNC(=N)N)NC(=O)[C@@H](Cc2ccccc2)NC(=O)[C@H](Cc2c[nH]cn2)NC1=O [technetium-99m labelled]	–	C57 mouse, B16/F1 melanoma, urine	2 h, together with: NDP-MSH 6.07 nmol	–	tissue uptake	94.9 ± 1.39 %ID
CC1(C)C(/C=C/C=C/C=C2/N(CCCCCC(=O)NCCCC[C@@H]3NC(=O)[C@@H](Cc4ccc(O)cc4)NC(=O)[C@H](CC(=O)O)NC(=O)CNC(=O)[C@H](CCCNC(=N)N)NC3=O)c3ccccc3C2(C)C)=[N+](CCCCn2nnc3c2CCC2C(CC3)C2COC(=O)NCCNC(=O)CN(CCN(CC(=O)O)CC(=O)O)CCN(CC(=O)O)CC(=O)O)c2ccc(S(=O)(=O)[O-])cc21 (stereo partly drawn)	shake-flask	1-octanol/PBS	pH 7.4, 99mTc-labelled tracer	–	log P	-1.45 ± 0.03
C[C@@H](O)[C@@H]1NC(=O)[C@H](CCCCN)NC(=O)[C@@H](Cc2c[nH]c3ccccc23)NC(=O)[C@H](Cc2ccc(O)cc2)NC(=O)[C@@H](NC(=O)[C@@H](Cc2ccccc2)NC(=O)c2ccc(C[C@H]3CN(CC(=O)O)CCN(CC(=O)O)CCN(CC(=O)O)CCN3CC(=O)O)cc2)CSSC[C@@H](C(=O)N[C@H](CO)[C@@H](C)O)NC1=O [gallium-67 labelled]	radio-TLC	mouse plasma	24 h, 37 °C, 67Ga-labelled	–	remaining intact	96.6 ± 1%

Excerpt of the above:
Structure (SMILES)	assay	test system	conditions	scale	endpoint	result
N=C(N)NCCC[C@@H]1NC(=O)[C@H](CCCCNC(=O)CNC(=O)CNC(=O)CNC(=O)CC[C@H](NC(=O)c2ccc(NN=Cc3ccccc3S(=O)(=O)O)nc2)C(=O)NCC(=O)NCC(=O)NCC(=O)NCCCC[C@@H]2NC(=O)[C@@H](Cc3ccccc3)NC(=O)[C@H](CC(=O)O)NC(=O)CNC(=O)[C@H](CCCNC(=N)N)NC2=O)NC(=O)[C@@H](Cc2ccccc2)NC(=O)[C@H](CC(=O)O)NC(=O)CNC1=O [technetium-99m labelled]	shake-flask	n-octanol/phosphate buffer	pH 7.4	–	log P	-4.3 ± 0.03
